Published values pooled from the literature.
Numbered parts are unrelated; each lists some results of a single study. Several values in a cell are separate wells, animals, samples, runs or records.
Sequence of UniProt Q9H1R3 (whole entry, looked up): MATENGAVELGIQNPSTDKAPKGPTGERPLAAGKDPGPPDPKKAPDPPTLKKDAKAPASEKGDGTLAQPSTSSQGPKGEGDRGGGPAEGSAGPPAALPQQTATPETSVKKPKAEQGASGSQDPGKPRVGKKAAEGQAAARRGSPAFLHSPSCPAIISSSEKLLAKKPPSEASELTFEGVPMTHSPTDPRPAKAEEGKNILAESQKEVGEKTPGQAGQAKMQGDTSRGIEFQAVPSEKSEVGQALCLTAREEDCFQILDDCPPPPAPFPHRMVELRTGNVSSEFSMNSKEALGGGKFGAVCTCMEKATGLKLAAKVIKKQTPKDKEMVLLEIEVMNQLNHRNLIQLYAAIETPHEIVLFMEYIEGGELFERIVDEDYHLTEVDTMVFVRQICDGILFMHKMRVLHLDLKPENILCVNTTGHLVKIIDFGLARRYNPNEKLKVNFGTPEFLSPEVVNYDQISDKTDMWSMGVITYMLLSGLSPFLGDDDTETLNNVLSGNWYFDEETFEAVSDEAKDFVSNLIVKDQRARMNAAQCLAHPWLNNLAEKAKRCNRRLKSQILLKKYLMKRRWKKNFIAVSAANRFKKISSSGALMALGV
Sequence of UniProt P31751 (whole entry, looked up): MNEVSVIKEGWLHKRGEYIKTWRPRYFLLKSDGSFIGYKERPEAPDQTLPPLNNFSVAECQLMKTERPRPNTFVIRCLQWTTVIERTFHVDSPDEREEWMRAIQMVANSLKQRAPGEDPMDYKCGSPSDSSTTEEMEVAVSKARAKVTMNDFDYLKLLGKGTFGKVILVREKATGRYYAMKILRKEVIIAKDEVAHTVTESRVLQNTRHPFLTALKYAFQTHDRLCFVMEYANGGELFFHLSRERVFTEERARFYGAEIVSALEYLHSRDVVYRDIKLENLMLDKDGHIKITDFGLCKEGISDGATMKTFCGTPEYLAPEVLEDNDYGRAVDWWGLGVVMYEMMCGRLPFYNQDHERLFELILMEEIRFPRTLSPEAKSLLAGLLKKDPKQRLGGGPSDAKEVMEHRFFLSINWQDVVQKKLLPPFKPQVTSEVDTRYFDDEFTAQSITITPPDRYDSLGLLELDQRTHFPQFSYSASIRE
Sequence of UniProt Q02750 (whole entry, looked up): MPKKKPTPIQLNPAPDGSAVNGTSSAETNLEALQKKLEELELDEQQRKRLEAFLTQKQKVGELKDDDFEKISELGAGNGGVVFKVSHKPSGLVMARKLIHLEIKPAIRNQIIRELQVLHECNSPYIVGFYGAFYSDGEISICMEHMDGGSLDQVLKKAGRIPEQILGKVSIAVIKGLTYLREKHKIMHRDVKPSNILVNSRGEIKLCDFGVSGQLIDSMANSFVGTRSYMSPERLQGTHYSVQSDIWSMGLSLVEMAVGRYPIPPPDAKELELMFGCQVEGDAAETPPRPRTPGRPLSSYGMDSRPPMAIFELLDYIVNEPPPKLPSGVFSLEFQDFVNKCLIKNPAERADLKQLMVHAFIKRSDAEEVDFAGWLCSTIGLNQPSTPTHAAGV
Sequence of UniProt O95382 (whole entry, looked up): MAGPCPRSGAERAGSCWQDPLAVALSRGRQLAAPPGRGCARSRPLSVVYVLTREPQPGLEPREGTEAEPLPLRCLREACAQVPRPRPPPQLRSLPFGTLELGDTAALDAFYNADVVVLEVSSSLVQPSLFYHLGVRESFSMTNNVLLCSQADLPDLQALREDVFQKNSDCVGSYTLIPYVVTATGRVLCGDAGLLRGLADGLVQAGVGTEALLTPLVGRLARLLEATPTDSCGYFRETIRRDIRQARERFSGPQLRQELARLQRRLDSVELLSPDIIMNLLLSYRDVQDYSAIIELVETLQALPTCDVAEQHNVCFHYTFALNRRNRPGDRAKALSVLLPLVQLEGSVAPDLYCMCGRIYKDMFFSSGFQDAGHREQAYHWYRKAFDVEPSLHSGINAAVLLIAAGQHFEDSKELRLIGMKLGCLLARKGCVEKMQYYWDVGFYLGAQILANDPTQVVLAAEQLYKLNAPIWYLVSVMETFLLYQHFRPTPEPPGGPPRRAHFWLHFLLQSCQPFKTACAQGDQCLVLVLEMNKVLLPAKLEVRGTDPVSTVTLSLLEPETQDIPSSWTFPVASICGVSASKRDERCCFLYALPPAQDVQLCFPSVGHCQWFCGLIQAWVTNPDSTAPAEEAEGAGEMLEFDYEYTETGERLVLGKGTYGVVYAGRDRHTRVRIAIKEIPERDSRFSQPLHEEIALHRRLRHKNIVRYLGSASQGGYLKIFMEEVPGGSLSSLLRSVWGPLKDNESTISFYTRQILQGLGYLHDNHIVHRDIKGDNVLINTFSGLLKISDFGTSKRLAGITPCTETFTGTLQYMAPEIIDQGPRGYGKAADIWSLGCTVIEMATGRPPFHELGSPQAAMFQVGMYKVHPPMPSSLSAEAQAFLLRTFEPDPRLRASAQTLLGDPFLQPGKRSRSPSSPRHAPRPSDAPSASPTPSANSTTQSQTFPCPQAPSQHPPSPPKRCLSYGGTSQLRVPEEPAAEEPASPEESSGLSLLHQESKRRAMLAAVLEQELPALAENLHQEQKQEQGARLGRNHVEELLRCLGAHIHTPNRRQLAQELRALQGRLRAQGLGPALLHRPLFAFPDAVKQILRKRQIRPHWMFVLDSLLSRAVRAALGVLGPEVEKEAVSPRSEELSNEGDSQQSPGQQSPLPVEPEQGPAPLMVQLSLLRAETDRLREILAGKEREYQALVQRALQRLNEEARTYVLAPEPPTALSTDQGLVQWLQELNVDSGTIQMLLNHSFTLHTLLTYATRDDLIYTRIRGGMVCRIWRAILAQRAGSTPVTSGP
Sequence of UniProt Q13873 (whole entry, looked up): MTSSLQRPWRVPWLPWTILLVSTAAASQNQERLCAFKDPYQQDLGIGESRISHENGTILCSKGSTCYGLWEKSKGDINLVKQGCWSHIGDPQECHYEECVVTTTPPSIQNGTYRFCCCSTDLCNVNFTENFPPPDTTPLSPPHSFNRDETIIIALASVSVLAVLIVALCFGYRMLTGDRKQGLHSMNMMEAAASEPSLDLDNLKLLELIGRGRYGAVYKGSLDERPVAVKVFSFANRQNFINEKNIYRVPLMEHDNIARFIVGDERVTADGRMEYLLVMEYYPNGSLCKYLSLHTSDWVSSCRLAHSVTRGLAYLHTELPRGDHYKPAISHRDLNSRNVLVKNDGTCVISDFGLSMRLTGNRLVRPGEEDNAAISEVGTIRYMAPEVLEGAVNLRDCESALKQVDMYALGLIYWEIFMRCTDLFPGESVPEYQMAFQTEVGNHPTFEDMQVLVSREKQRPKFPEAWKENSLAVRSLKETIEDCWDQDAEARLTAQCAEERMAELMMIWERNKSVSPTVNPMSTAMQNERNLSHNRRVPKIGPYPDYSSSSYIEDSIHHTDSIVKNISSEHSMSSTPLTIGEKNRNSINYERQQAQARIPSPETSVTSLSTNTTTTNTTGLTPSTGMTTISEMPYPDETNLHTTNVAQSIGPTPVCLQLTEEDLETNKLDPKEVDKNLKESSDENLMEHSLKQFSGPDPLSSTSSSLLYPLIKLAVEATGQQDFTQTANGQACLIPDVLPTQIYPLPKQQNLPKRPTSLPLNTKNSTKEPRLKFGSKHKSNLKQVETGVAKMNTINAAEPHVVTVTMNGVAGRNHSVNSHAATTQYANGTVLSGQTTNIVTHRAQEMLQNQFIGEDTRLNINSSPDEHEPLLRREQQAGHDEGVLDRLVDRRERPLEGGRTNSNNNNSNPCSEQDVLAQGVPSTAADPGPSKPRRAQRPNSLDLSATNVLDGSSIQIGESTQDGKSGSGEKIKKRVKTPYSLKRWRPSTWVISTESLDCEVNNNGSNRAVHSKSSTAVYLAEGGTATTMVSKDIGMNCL
Sequence of UniProt P51956 (whole entry, looked up): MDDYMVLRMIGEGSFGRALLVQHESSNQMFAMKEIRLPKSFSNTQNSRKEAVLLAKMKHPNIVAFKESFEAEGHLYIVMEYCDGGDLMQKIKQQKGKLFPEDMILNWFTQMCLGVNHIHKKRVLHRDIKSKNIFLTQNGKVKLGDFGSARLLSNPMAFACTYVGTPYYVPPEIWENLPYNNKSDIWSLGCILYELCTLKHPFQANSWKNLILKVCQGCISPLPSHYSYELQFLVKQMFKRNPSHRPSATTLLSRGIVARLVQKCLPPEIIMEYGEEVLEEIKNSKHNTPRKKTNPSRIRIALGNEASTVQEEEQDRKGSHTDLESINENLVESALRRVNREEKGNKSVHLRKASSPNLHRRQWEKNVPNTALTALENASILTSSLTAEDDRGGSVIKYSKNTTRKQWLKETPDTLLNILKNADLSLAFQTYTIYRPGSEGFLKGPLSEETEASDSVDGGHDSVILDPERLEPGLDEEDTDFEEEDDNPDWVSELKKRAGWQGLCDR
Sequence of UniProt Q86Y07 (whole entry, looked up): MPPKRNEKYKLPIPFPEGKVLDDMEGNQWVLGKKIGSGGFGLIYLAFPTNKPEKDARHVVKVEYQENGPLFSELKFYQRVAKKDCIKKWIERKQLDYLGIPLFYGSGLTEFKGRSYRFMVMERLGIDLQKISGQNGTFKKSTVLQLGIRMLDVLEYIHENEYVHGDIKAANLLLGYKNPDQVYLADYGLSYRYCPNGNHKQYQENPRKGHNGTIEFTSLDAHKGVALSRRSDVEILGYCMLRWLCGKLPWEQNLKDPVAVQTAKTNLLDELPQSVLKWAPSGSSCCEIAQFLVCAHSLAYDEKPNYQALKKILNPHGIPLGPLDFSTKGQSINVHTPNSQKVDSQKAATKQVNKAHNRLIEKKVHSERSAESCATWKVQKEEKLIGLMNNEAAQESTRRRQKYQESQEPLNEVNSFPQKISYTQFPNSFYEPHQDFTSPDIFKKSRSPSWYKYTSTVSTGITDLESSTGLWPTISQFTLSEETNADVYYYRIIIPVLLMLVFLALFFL

Sample 1
Cell line: mouse MPNST tumor cells
Method: high-content nuclear imaging
Item: cell number
Tested at: 10 µM
Time: 12 h
Notes: mean of 2 replicates
Reference: plate mean
Direction: higher = more cells
With `Cc1ccc(C(C)(O)c2nc3ccccc3s2)c(C)c1` (centres unmarked) the nuclei count was 2.89 z-score.
`COc1ccc2c(-c3ccc(O)c(C)c3)ccnc2c1` gave a nuclei count of 1.92 z-score.
`NCC(=O)Nc1ccc(-n2nc(C(F)(F)F)cc2-c2ccc3c(ccc4ccccc43)c2)cc1` has a nuclei count of -6.32 z-score.

Sample 2
SMILES: CN1CCN(c2cnc3c(C4CCN(C(=O)c5ccc(OC(F)(F)F)cc5N)CC4)ncnc3c2)CC1
Method: competition with immobilised ligand
Tested at: 1 µM
For Mitogen-activated protein kinase kinase kinase 6 (MAP3K6, Homo sapiens, UniProt O95382); cell-free assay: remaining binding read 100%.
For Cyclin-dependent kinase-like 1 (CDKL1, Homo sapiens, UniProt Q00532); binding: remaining binding read 94%.
For Mitogen-activated protein kinase kinase kinase kinase 2 (MAP4K2, Homo sapiens, UniProt Q12851); cell-free assay: remaining binding read 82%.
Receptor-type tyrosine-protein kinase FLT3 (FLT3, Homo sapiens, UniProt P36888, D835H); cell-free assay — remaining binding: 75%.
For Epidermal growth factor receptor (EGFR, Homo sapiens, UniProt P00533, del747-750/T751S); cell-free assay: remaining binding read 77%.
It gave 100% for remaining binding (Bone morphogenetic protein receptor type-2 (BMPR2, Homo sapiens, UniProt Q13873); cell-free assay).
Mitogen-activated protein kinase kinase kinase 15 (MAP3K15, Homo sapiens, UniProt Q6ZN16); cell-free assay — remaining binding: 95%.
Hepatocyte growth factor receptor (MET, Homo sapiens, UniProt P08581, Y1235D); cell-free assay — remaining binding: 73%.
Tyrosine-protein kinase ABL1, non-phosphorylated (ABL1, Homo sapiens, UniProt P00519, F317L); cell-free assay — remaining binding: 100%.
For Epidermal growth factor receptor (EGFR, Homo sapiens, UniProt P00533, T790M); cell-free assay: remaining binding read 84%.
Dual specificity mitogen-activated protein kinase kinase 1 (MAP2K1, Homo sapiens, UniProt Q02750); cell-free assay — remaining binding: 95%.
Casein kinase II subunit alpha' (CSNK2A2, Homo sapiens, UniProt P19784); cell-free assay — remaining binding: 93%.
For Fibroblast growth factor receptor 1 (FGFR1, Homo sapiens, UniProt P11362); cell-free assay: remaining binding read 100%.
It gave 100% for remaining binding (Serine/threonine-protein kinase Nek5 (NEK5, Homo sapiens, UniProt Q6P3R8); cell-free assay).
Myotonin-protein kinase (DMPK, Homo sapiens, UniProt Q09013); cell-free assay — remaining binding: 89%.
It gave 100% for remaining binding (RAC-beta serine/threonine-protein kinase (AKT2, Homo sapiens, UniProt P31751); cell-free assay).
Epidermal growth factor receptor (EGFR, Homo sapiens, UniProt P00533, L858R); cell-free assay — remaining binding: 100%.
It gave 100% for remaining binding (Serine/threonine-protein kinase haspin (HASPIN, Homo sapiens, UniProt Q8TF76); cell-free assay).
Serine/threonine-protein kinase Nek3 (NEK3, Homo sapiens, UniProt P51956); cell-free assay — remaining binding: 97%.

Sample 3
Organism: Sarcocystis neurona
Effect on: parasite growth
Tested at: 10 µM
Notes: secondary screen
For `CN(CCOc1ccc(CC2SC(=O)NC2=O)cc1)c1ccccn1` (centres unmarked), the inhibition was 8.4%.
For `Clc1ccc(COC(Cn2ccnc2)c2ccc(Cl)cc2Cl)c(Cl)c1` (centres unmarked), the inhibition was 55%.
`COC1=CC(=O)C[C@@H](C)[C@]12Oc1c(Cl)c(OC)cc(OC)c1C2=O` has an inhibition of -47%.
For `COc1cc(C)c(Cc2cnc(N)nc2N)cc1OC`, the inhibition was 45.3%.

Sample 4
Species: human
Sample: microsomes or S9
Tested at: 2 µM
Time: 0.5 h
`CCCc1cc(=O)[nH]c(-n2nc(C)cc2NC(=O)COc2ccccc2C)n1` gave a remaining compound of 26.2%.
For `O=C(NCC1Cc2ccccc2CO1)c1cnn2c1OCCC2` (centres unmarked), the remaining compound was 85.4%.
The remaining compound of `COc1ccc2c(CSc3nc4ccccc4o3)cc(=O)oc2c1` is reported as 0.17%.

Sample 5
Compound: Cc1ccc(NC(=O)c2ccnc(C(F)(F)F)c2)cc1-c1cc(OCCO)nc(N2CCOCC2)c1
Effect on: binding
Tested at: 1 µM
For Myosin light chain kinase 2, skeletal/cardiac muscle (MYLK2, Homo sapiens, UniProt Q9H1R3); competition with immobilised ligand: remaining binding read 98%.
It gave 100% for remaining binding (Serine/threonine-protein kinase VRK2 (VRK2, Homo sapiens, UniProt Q86Y07); competition with immobilised ligand).
For Epidermal growth factor receptor (EGFR, Homo sapiens, UniProt P00533, del746-750): remaining binding read 86%.
cAMP-dependent protein kinase catalytic subunit PRKX (PRKX, Homo sapiens, UniProt P51817) — remaining binding: 100%.

Sample 6
Cell line: A-375
Tested at: 100 µM
Time: 36 h
The viability of `C[C@@H](NCCc1ccc(O)cc1)[C@@H](O)c1ccc(O)cc1` (racemic) is reported as 103%.
For `NCCNc1ccc(NCCN)c2c1C(=O)c1ccncc1C2=O`, the viability was 0.687%.
The viability of `CO/N=C(\C(=O)N[C@@H]1C(=O)N2C(C(=O)O)=C(COC(N)=O)CS[C@H]12)c1ccco1` is reported as 118%.

Single results of other studies
For `CC(C)(C)c1cnc(CSc2cnc(NC(=O)C3CCN(CCCCCSc4cccc5c4CN(C4CCC(=O)NC4=O)C5=O)CC3)s2)o1` (centres unmarked), the tumour weight was 0.219 g and 0.325 g and 0.338 g and 0.471 g and 0.379 g (NSG mouse, HuT78 xenograft; dose not given, end of study).
The licking duration of `COc1cc(C(=O)OCCCN2CCCN(CCCOC(=O)c3cc(OC)c(OC)c(OC)c3)CC2)cc(OC)c1OC` is reported as 35.5 s and 47.3 s and 61.1 s and 41.3 s (female mouse, formalin pain; intrathecal, 100 nmol, 5 to 10 min).

Repeated from above (sample 2):
Hepatocyte growth factor receptor (MET, Homo sapiens, UniProt P08581, Y1235D); cell-free assay — remaining binding: 73%.
Tyrosine-protein kinase ABL1, non-phosphorylated (ABL1, Homo sapiens, UniProt P00519, F317L); cell-free assay — remaining binding: 100%.
For Epidermal growth factor receptor (EGFR, Homo sapiens, UniProt P00533, T790M); cell-free assay: remaining binding read 84%.
Dual specificity mitogen-activated protein kinase kinase 1 (MAP2K1, Homo sapiens, UniProt Q02750); cell-free assay — remaining binding: 95%.
